Measurements collected from several papers.
Each line is one published result; not all experiments were run side by side. Values joined by “and” are separate records of one study, mostly repeats; a detail may differ. ± marks the error that the study gave.
RPS6KA1: Ribosomal protein S6 kinase alpha-1 (RPS6KA1, Homo sapiens, UniProt Q15418)
MAL12: Alpha-glucosidase MAL12 (MAL12, Saccharomyces cerevisiae S288c, UniProt P53341)

COc1ccc(N2C(=O)N(c3c(C)cccc3Cl)Cc3cnc(Nc4ccc(C5CCN(C)CC5)cc4OC)nc32)nc1 — inhibition (RPS6KA1; kinase activity, inhibitor; 0.5 µM, kinase RSK1): 11%
CN1CCN(c2cc(-c3ccncc3)c(-c3ccc4ccccc4c3)nn2)CC1 — inhibition (CXCR3 (Homo sapiens, UniProt P49682); antagonist, FLIPR; 10 µM): 2.6%
CN1C(=O)/C(=N\Nc2ncc(-c3cc4ccccc4oc3=O)s2)c2cc(Cl)ccc21 — inhibition (MAL12; enzyme activity; 100 µM, with: pNPG): 48.2% and 48%
CN(C(=O)n1cnc(-c2ccc[n+]([O-])c2)c1)C1CCCCC1 — inhibition (HCRTR2 (Homo sapiens, UniProt O43614); radioligand binding; 10 µM): 2%
O=C(Nc1cccnn1)N1CCN([C@@H]2CCOc3cc(C(F)(F)F)ccc32)CC1 — inhibition (Gag-Pol polyprotein, protease (gag-pol, Human immunodeficiency virus type 1 group M subtype B, UniProt P04585); enzyme activity; 20 µM): 13%
Cn1cccc1-c1cccnc1 — inhibition (DRD3 (Homo sapiens, UniProt P35462); binding; 50 µM): -6.26%
CCc1cc(=O)[nH]c(-n2nc(C)cc2NC(=O)c2cc(C)ccc2F)n1 — inhibition (ROCK1 (Homo sapiens, UniProt Q13464); radiometric kinase; 10 µM): no inhibition
COc1cc(Nc2ncc(F)c(Nc3ccc4c(n3)NC(=O)C(C)(C)O4)n2)cc(OC)c1OC — inhibition (RPS6KA1; KINOMEscan; 10 µM, RSK1(Kin.Dom.2-C-terminal)): 27%
CN1CCN(c2nc(N)c3ccccc3n2)CC1 — inhibition (Neuronal acetylcholine receptor; alpha4/beta2 (Homo sapiens, UniProt P17787+P43681); radioligand binding, radioligand competition binding; 0.1 µM, mean of two; reference: control specific binding): 1.9%
O=C1N=C(N2CCCCN2)S/C1=C\c1ccc(F)cc1O — inhibition (rat benzodiazepine site; radioligand binding; rat cerebral cortex; 10 µM, with: [3H]flunitrazepam): < 10%
CC(C)N1CCC[C@H]1CNC(=O)c1cn(C2CCCC2)c(=O)c2c1c1ccccc1n2C — inhibition (L-type calcium channel dihydropyridine site, rat; radioligand binding; 10 µM): 22%
CCCC[C@@H](NC(=O)[C@@H](N)Cc1ccc(O)cc1)C(=O)NCC(=O)N[C@@H](Cc1ccc(F)cc1)C(=O)N(C)CCC[C@@]1(c2ccc(F)cc2)OCc2cc(C#N)ccc21 — inhibition (ADRA2C (Homo sapiens, UniProt P18825); 10 µM): < 50%
FC(F)(F)c1cccc(Nc2nc(NCCOc3ccccc3)nc3[nH]cnc23)c1 — inhibition (MAPK11 (Homo sapiens, UniProt Q15759); enzyme activity, inhibitor, Thermo Fisher kinase screening; 5 µM): 3%
Cc1ncc(C)n2nc(/C=C/c3nc(N4CCCC4)cc(N4CCOCC4)n3)nc12 — inhibition (Quinone reductase 2 (Mesocricetus auratus, UniProt A0ABM2YAB8); radioligand binding; 10 µM): 34%
c1ccc(C(NCCNC(c2ccccc2)c2ccccc2)c2ccccc2)cc1 — inhibition (Androgen receptor (AR, Homo sapiens, UniProt P10275); binding; 10 µM, Eurofins selectivity panel, with: testosterone): 62%
CN(CCN1CCC(OC(=O)Nc2ccccc2-c2ccccc2)CC1)C(=O)c1ccc(CN2CCC(C(N)=O)CC2)cc1 — inhibition (protein kinase C; enzyme activity; 1 µM): -6%
O=C(O[C@@H]1Cc2c(O)cc(O)cc2O[C@@H]1c1cc(=O)c(O)c2c(O)c(O)cc([C@H]3Oc4cc(O)cc(O)c4C[C@H]3O)c2c1)c1cc(O)c(O)c(O)c1 — inhibition (P4HB (Homo sapiens, UniProt P07237); insulin reduction; 20 µM): inhibited
O=C(Nc1cnccc1Cl)N1CCN(Cc2ccc3c(c2)OC(F)(F)O3)CC1 — inhibition (GABAA receptor chloride channel, rat; binding; 10 µM, with: [3H]TBOB): 19%
Cc1ncc2c(n1)[C@H](C)[C@@H]1C[C@H]2[C@@](C)(O)CN1Cc1ccccc1 — inhibition (Mu-type opioid receptor (Cavia porcellus, UniProt A0ACM8Q262); binding, radioligand binding; guinea pig brain membranes; 1 µM, with: [3H]DAMGO): 0%
CC[C@H](C)[C@H](NC(=O)[C@@H](NC(=O)[C@H](N)Cc1ccccc1)C(C)C)C(=O)N[C@@H](C)C(N)=O — inhibition (APP (Homo sapiens, UniProt P05067); amyloid-beta aggregation, thioflavin T fluorescence; 2.0 µM, 144 h, with: 2 µM amyloid-beta): 73.4%
O=C(Nc1cccnn1)N1CCC(=Cc2cccc(Oc3ccc(C(F)(F)F)cn3)c2)CC1 — inhibition (BDKRB1 (Homo sapiens, UniProt P46663); binding; 50 µM, with: [3H][des-Arg10]kallidin): 14%
COCc1c(-c2cc3cc(C)cc(OC)c3s2)c2c(N)ncnn2c1CN1CCNC(=O)C1 — inhibition (nicotinic acetylcholine receptor; radioligand binding; 10 µM): -2%
C#Cc1n[nH]c2c(-c3cn(C(C)c4ccccn4)c(=O)[nH]c3=O)cc(F)cc12 (stereo not drawn) — inhibition (Mitogen-activated protein kinase kinase kinase 7, with TAB1 (MAP3K7, Homo sapiens, UniProt O43318); kinase activity, inhibitor; 1 µM): 9.1%
CN(C)CCCN1c2ccccc2Sc2ccccc21 — IC50 (Plasmodium falciparum; D10): 15.8 µM
COc1ccc2c3c([nH]c2c1)CCN(C)CC3 — inhibition (Chrna7 (Rattus norvegicus, UniProt Q05941); ACh-evoked current, antagonist, two-electrode voltage clamp; Xenopus laevis oocytes; 10 µM, holding potential -120 mV, with: 100 µM acetylcholine): 78.4 ± 5.9%
O=C(N1CCC2(CC1)C[C@H](CN1CCCCS1(=O)=O)CCO2)C1(c2ccccc2)CCCC1 — inhibition (DDX3X (Homo sapiens, UniProt O00571); ATPase activity; 50 µM): 30%
CN1C(=S)N(c2ccccc2)C(=O)/C1=C1/C(=O)N(C)c2ccc(Cl)cc21 — inhibition (MAL12; enzyme activity; 200 µM, with: pNPG): 54.4% and 54.3%
COc1cc2nc(N3CCN(C(=O)C4COc5ccccc5O4)CC3)nc(N)c2cc1OC (stereo not drawn) — IC50 (Plasmodium falciparum; Dd2): 10 µM
O=C(N/N=C/c1ccc(Cl)cc1Cl)c1cnccn1 — inhibition (Gag-Pol polyprotein, integrase with LEDGF/p75 (gag-pol, Human immunodeficiency virus 1, UniProt P12497); LEDGF/p75-integrase interaction, AlphaScreen; 50 µM): inactive
O=S(=O)(O)c1cc[c]([Hg][Cl])cc1 — inhibition (rat aminopeptidase III (NAP-2); enzyme activity; 20 µM): 95%

Excerpt of the above:
O=C(O[C@@H]1Cc2c(O)cc(O)cc2O[C@@H]1c1cc(=O)c(O)c2c(O)c(O)cc([C@H]3Oc4cc(O)cc(O)c4C[C@H]3O)c2c1)c1cc(O)c(O)c(O)c1 — inhibition (P4HB (Homo sapiens, UniProt P07237); insulin reduction; 20 µM): inhibited
CN1CCN(c2cc(-c3ccncc3)c(-c3ccc4ccccc4c3)nn2)CC1 — inhibition (CXCR3 (Homo sapiens, UniProt P49682); antagonist, FLIPR; 10 µM): 2.6%
CN1CCN(c2nc(N)c3ccccc3n2)CC1 — inhibition (Neuronal acetylcholine receptor; alpha4/beta2 (Homo sapiens, UniProt P17787+P43681); radioligand binding, radioligand competition binding; 0.1 µM, mean of two; reference: control specific binding): 1.9%
O=S(=O)(O)c1cc[c]([Hg][Cl])cc1 — inhibition (rat aminopeptidase III (NAP-2); enzyme activity; 20 µM): 95%
